# Published values from different studies.
# “And” joins repeats or separate records; there may be more than shown. Numbers after ± are the reported error.
Structure (SMILES),assay,system,setting,how to read,measurement,value
CC(=O)N([O-])CCCCCNC(=O)CCC(=O)N([O-])CCCCCNC(=O)CCC(=O)N([O-])CCCCCN.[89Zr+4],,"mouse, blood",1 h,,tracer uptake,0.67 %ID/g
Cc1cc(-c2ccc(C(=O)[C@@H]3CCCC[C@H]3C(=O)Nc3cnn4c3C(=O)NCC4)cc2)[nH]n1,,"human, urine and faeces","oral, 200 mg, mean of six subjects",baseline: dose,recovery of radioactivity,85.2%
NS(=O)(=O)c1c(F)c(F)c(S(=O)(=O)CCO)c(F)c1F,,,sulfonamide group,,pKa,7.28
COc1cccc(OC)c1-c1cc(C(=O)NC2(C(=O)O)C3CC4CC(C3)CC2C4)nn1-c1ccc(C(=O)N(C)CCOCCOCCN(C)C(=O)[C@H](CCCCNC(=O)[C@H](CC(C)C)NC(=O)C2OC2C(=O)O)NC(=O)CN2CCN(CC(=O)[O-])CCN(CC(=O)[O-])CCN(CC(=O)[O-])CC2)cc1C(C)C.[177Lu+3] (mixture of isomers),,"mouse, HT-29 xenograft","4 h post injection, biodistribution",baseline: tumour over heart uptake,tumour-to-heart ratio,2.96
[18F]CCn1cc(COc2ccc(-c3nncnn3)cc2)nn1,,"BALB/c nude mouse, LS174T xenograft","intravenous, 1 h, with: CC49-TCO 72 h before",,tumour to muscle ratio,1.1
C=C(NC(=O)c1csc(-c2nc3c(cc2O)-c2nc(cs2)C(=O)NC(C(C)O)C(=O)NC(=C(C)OC)c2nc(cs2)C(=O)NC2c4nc(cs4)C(=O)NC(COC(=O)c4c5c6c(cccc6n4O)COC(=O)C(OC4CC(C)(O)C(N(C)C)C(C)O4)C2OC5)c2nc-3cs2)n1)C(N)=O (stereo not drawn),,"cynomolgus monkey, male, plasma","intravenous infusion, 3 mg/kg, multiple doses, day 7",,clearance,2.53 mL/min/kg
Cc1n[nH]c(C)c1CCCOc1cc(C(=O)NCCCCC(NC(=O)CN2CCN(CC(=O)[O-])CCN(CC(=O)[O-])CCN(CC(=O)[O-])CC2)C(=O)NCC2CCC(C(=O)NC(Cc3ccc4ccccc4c3)C(=O)NCCCCC(NC(=O)NC(CCC(=O)O)C(=O)O)C(=O)O)CC2)ccc1F.[177Lu+3] (stereo not drawn),ex vivo biodistribution,"mouse 22Rv1 xenograft, tumour",96 h post-injection,,tumour uptake,4.87 ± 0.91 %ID/g
O=C(c1ccccc1)N1C(c2ccc(OCC3CCN(CCCF)C3)cc2)c2ccc(O)cc2CC12CC2 (stereo not drawn),,"C57BL/6J mouse, plasma","intraperitoneal, 25 mg/kg",,MRT(0-inf),2.21 h and 2.28 h
CCCCN1C(=O)c2cccc3c(NCCCCCCCCCCN4CCOCC4)ccc(c23)C1=O,,DMF,,,fluorescence lifetime,10.2 ns
CC(C)C[C@H](NC(=O)[C@@H](CCCCNC(=O)[C@@H](Cc1ccccc1)NC(=O)CCCCCCCNC(=O)CN1CCN(CC(=O)O)CCN(CC(=O)O)CCN(CC(=O)O)CC1)NC(=O)[C@H](Cc1ccc(O)cc1)NC(=O)[C@H](CO)NC(=O)[C@H](Cc1c[nH]c2ccccc12)NC(=O)[C@H](Cc1c[nH]cn1)NC(=O)[C@@H]1CCC(=O)N1)C(=O)N[C@@H](CCCNC(=N)N)C(=O)N1CCC[C@H]1C(=O)NCC(N)=O [indium-111 labelled],,"male athymic nude mice, DU-145 prostate cancer xenograft, tumour","intravenous, 0.037 MBq, 4 h",baseline: tumour over blood,tumour-to-tissue ratio,4.57
O=C(CN1CCN(CC(=O)NCc2ncccc2O)CCN(CC(=O)NCc2ncccc2O)CCN(CC(=O)NCc2ncccc2O)CC1)NCc1ncccc1O.[177Lu+3],,"Sprague-Dawley rat, stomach","intravenous (tail vein), dose not given, 2 h",,tissue uptake,0.032 ± 0.002 % injected dose/g
CCCC[C@H](NC(=O)CNC(=O)CNC(=O)[C@H](CCCCNC(=O)C(C)c1ccc(CC(C)C)cc1)NC(=O)CN1CCN(CC(=O)O)CCN(CC(=O)O)CCN(CC(=O)O)CC1)C(=O)N[C@H]1CC(=O)NCCCC[C@@H](C(N)=O)NC(=O)[C@H](Cc2c[nH]c3ccccc23)NC(=O)[C@H](CCCNC(=N)N)NC(=O)[C@@H](Cc2ccccc2)NC(=O)[C@H](Cc2c[nH]cn2)NC1=O (stereo partly drawn) [lutetium-177 labelled],,"C57 mice, tumour",2 h,baseline: lung,tumour-to-tissue ratio,7.27
Cc1cccc(Cn2ncc3c4cc(F)c(CN(C)C)cc4n(C)c3c2=O)n1,,"Dutch-belted rabbit, plasma","intravitreal, 1 µM vitreous, 7.00 days",,plasma concentration,not detected
COc1ccc2c(c1)CCn1c[n+]3c(c1-2)-c1ccc(OC)cc1CC3,,"female NSG mice, blood","6 mg/kg, day 7, 5 days per week",,Neutrophils,62.2 ± 18.4%
CNCc1ccc(-c2cc(=O)c3ccc4[nH]c(C(F)(F)F)nc4c3o2)cc1,,"ICR mice, brain","intravenous, 2 mg/kg",,t1/2,1.41 h
O=C(Nc1cnccc1-c1ccc([18F])nc1)c1ccnc(NC(=O)C2CC2)c1,,"FVB/NJ mice (both sexes), feces","intravenous, dose not given, 120 min, with: tariquidar 15 mg/kg i.v. pre-dose",,SUV,6.6
C=CC(=O)Nc1cc(Nc2nccc(-c3cn(C)c4ccccc34)n2)c(OC)cc1N(C)CCNC,,"human, plasma","270 ng/mL, 2 h, on ice, high QC level",,remaining compound,100%
CN1CCC[C@]1(C)/C=C/S(=O)(=O)NC(=O)Nc1c2c(cc3c1CC(O)C3)CCC2 (stereo partly drawn),,"human, plasma","oral, 50 mg twice daily of parent drug, day 14, metabolite of dosed drug",,Tmax at first steady-state dose,4 h
[123I]c1ccc2nc(-c3ccc(-n4ccnn4)nc3)cn2c1,,"male Wistar rat, muscle","intravenous, 4 MBq, 6 h",,tracer uptake,0.024 %ID/g
C=CC(=O)Nc1cc(Nc2nccc(-c3c[nH]c4ccccc34)n2)c(OC)cc1N(C)CCN(C)C,storage stability,human dried blood spot,"10 d, -80 °C, HQC level",,recovery,106%
CCC[C@H]1CC[C@H](c2ccc(NC(=S)NC[C@@H]3[C@@H](O)[C@@H](O)[C@H]4[C@H](O)CCCN43)cc2)CC1,,"NOD-SCID mouse, serum","ip, 30 mg/kg",,BUN,22.4 ± 4.41 mg/dL
C[C@@H](C(=O)O)c1ccc(-c2ccccc2)c(F)c1,HPLC,solution,"concentration not given, 4 h, room temperature",,relative change of HPLC peak area,1.14%
CC(C(=O)O)n1nc(Cn2cc3cc(OCC[18F])c(Cl)cc3n2)c2ccccc2c1=O (racemic),,"Sprague-Dawley rat male, fat",30 min,,tissue uptake,0.05 ± 0.02 %ID/g
C#CC1(NC(=O)C(CC(C)(C)F)NC(c2ccc(-c3ccc(S(C)(=O)=O)cc3)cc2)C(F)(F)F)CC1 (stereo not drawn),,PBS,"100 µM, 23 h, pH 7.45, 37 °C, with: cysteine 10 mM",,cysteine adduct formation,0%
CN1CCCNC(=O)c2cccc(c2)C(=O)NCCCN(C)CCCNc2cccc3c2C(=O)c2cccc(c2C3=O)NCCC1,,"mouse, serum",dose not given,,AST,58 IU/L and 51 IU/L and 50 IU/L
COCC1CN(C2CCN(c3cc(OC)c(Nc4ncc(Br)c(Nc5ccc6c(c5P(C)(C)=O)OCCO6)n4)cc3C)CC2)C1,,EGFR-mutant NSCLC patients,"oral, 30 mg once daily",,grade ≥3 treatment-related AEs,0%
CNc1nc(N)nc2c1ncn2C1OC(CO)C(O)C1(C)F (stereo not drawn),,"healthy adult humans, plasma","oral, 550 mg once daily, day 6, fasted, given alone",,"Cmax, arithmetic mean",945 ng/mL
C=Cc1c(C)c2cc3nc(c(CC(=O)OCCOCCOCCOC)c4[nH]c(cc5nc(cc1[nH]2)C(C)=C5CC)c(C)c4C(=O)OCCOCCOCCOC)[C@@H](CCC(=O)OCCOCCOCCOC)[C@@H]3C,LC-MS,methanol-water 9:1,"1 h, pH 2.0",,compound loss,81%
CCCCCCCOc1ccc(CC[C@](N)(CO)COP(=O)(O)O)cc1C(F)(F)F,,"healthy human males, plasma","oral, 0.125 mg, day 1, median",,Tmax,12 h
COc1ccc(Nc2nc(Nc3ccc(OCCOCCOCC[18F])cc3)ncc2Br)cc1,,"ICR mice, S180 tumour","intravenous, 370 kBq, 60 min",baseline: tumour over bone,uptake ratio,1.02
Cc1nn(-c2nc3c(F)cc(F)cc3s2)c(O)c1C(c1ccc(C(F)(F)F)cc1)c1c(C)nn(-c2nc3c(F)cc(F)cc3s2)c1O,,"male ICR mouse, plasma","intraperitoneal, 10 mg/kg",,dose-normalised AUC(0-t),2870 kg·ng·h/mL/mg and 2600 kg·ng·h/mL/mg and 2640 kg·ng·h/mL/mg
C=Cc1c(C)c2cc3nc(c(CC(=O)O)c4[nH]c(cc5nc(cc1[nH]2)C(C)=C5CC)c(C)c4C(=O)O)[C@@H](CCC(=O)OCCOCCOCCOC)[C@@H]3C,LC-MS,methanol-water 9:1,"4 h, pH 8.0",,compound loss,21%
CC(C)OCCOCc1ccc(OCC(O)CN(N=O)C(C)C)cc1 (stereo not drawn),"duplex sequencing, refers to: mutation frequency","NMRI mouse, liver","oral, 9.95 mg/kg/day, 4 weeks",baseline: vehicle,fold change,1.09
O=C(Nc1cnccc1-c1ccc([18F])cc1)c1ccnc(NC(=O)C2CC2)c1,ex vivo gamma counting,"GSK-3β transgenic mice, late-stage, spleen","intravenous, 120 min, mean, P-gp inhibitor pretreatment, with: tariquidar 15 mg/kg iv",,SUV,0.45
C[N+](C)(CCOCCOCCOCCNC(=S)Nc1ccc(C[C@H]2CN(CC(=O)[O-])CCN(CC(=O)[O-])CCN2CC(=O)[O-])cc1)C[c-]1cccc1.[64Cu+2].[Fe+2].c1cc[cH-]c1,pretargeted biodistribution,"nude mouse, BxPC-3 xenograft","24 h post-radioligand, 72 h lag time",,tumour uptake,1.5 ± 0.5 %ID/g
Cc1cc(C)n(CCN(CCN)CCCCCCNC(=O)[C@@H](N)Cc2c[nH]cn2)n1.[99Tc+].[C-]#[O+].[C-]#[O+].[C-]#[O+],,BALB/c nude mice A549 xenograft,"intravenous, 15 min",baseline: tumour over blood,tumour-to-tissue ratio,0.8
CC[C@H](C)[C@@H]1NC(=O)[C@H](Cc2ccc(O)cc2)NC(=O)CCCSC[C@@H](C(=O)N(CC(=O)N[C@@H](CC(C)C)C(=O)NCC(N)=O)Cc2ccc(F)cc2)NC(=O)[C@H](CC(N)=O)NC(=O)[C@H](CCC(N)=O)NC1=O,,"human, plasma","intranasal, 50 µg single",,tmax,0.17 h
CN([O-])C(=O)CN1CCNCCN(CC(=O)N(C)[O-])CC1.[89Zr+4],,"mouse, liver","intravenous, 1 h",,tracer uptake,0.24 %ID/g
COc1cccc(OC)c1-c1cc(C(=O)NC2(C(=O)O)C3CC4CC(C3)CC2C4)nn1-c1ccc(C(=O)N(C)CCCN(C)C(=O)[C@H](CCCCNC(=O)[C@H](CC(C)C)NC(=O)C2OC2C(=O)O)NC(=O)CN2CCN(CC(=O)[O-])CCN(CC(=O)[O-])CCN(CC(=O)[O-])CC2)cc1C(C)C.[177Lu+3] (mixture of isomers),,"mouse, HT-29 xenograft, heart",24 h post injection,,tissue uptake,0.14 %ID/g
COC1CN([C@H]2CC[C@H]([C@@]3(C)Oc4c(Cl)cc(C(=O)NCc5c(SC)cc(C)[nH]c5=O)c(C)c4O3)CC2)C1,,"female CB17 SCID mice, HT-1376 xenograft, plasma","75 mg/kg, day 1",,AUC(0-t),7220 ng·h/mL
N=C(N)NCCC[C@@H]1NC(=O)[C@H](CO)NC(=O)[C@@H](NC(=O)[C@H](CO)NC(=O)[C@H](CO)NC(=O)[C@H](Cc2c[nH]c3ccccc23)NC(=O)CNC(=O)[C@H](CO)NC(=O)[C@@H](N)Cc2c[nH]c3ccccc23)CSSC[C@@H](C(=O)NCC(=O)O)NC(=O)[C@H](CO)NC1=O,,"patients, plasma","intravenous, 5 mg/kg, thrice weekly, median",,volume of distribution (Vz),580 L
Cc1nc(N)nc2c1C(=O)N[C@@H](c1ccc(F)cc1-c1cccc(O[11CH3])n1)C2,ex vivo biodistribution,"healthy mice, spleen","60 min post-injection, baseline, vehicle pre-treatment",,tracer uptake,1 ± 0.2 %ID

# Some of these lines once more:
Structure (SMILES),assay,system,setting,how to read,measurement,value
CC[C@H](C)[C@@H]1NC(=O)[C@H](Cc2ccc(O)cc2)NC(=O)CCCSC[C@@H](C(=O)N(CC(=O)N[C@@H](CC(C)C)C(=O)NCC(N)=O)Cc2ccc(F)cc2)NC(=O)[C@H](CC(N)=O)NC(=O)[C@H](CCC(N)=O)NC1=O,,"human, plasma","intranasal, 50 µg single",,tmax,0.17 h
O=C(c1ccccc1)N1C(c2ccc(OCC3CCN(CCCF)C3)cc2)c2ccc(O)cc2CC12CC2 (stereo not drawn),,"C57BL/6J mouse, plasma","intraperitoneal, 25 mg/kg",,MRT(0-inf),2.21 h and 2.28 h
C=CC(=O)Nc1cc(Nc2nccc(-c3cn(C)c4ccccc34)n2)c(OC)cc1N(C)CCNC,,"human, plasma","270 ng/mL, 2 h, on ice, high QC level",,remaining compound,100%
C=Cc1c(C)c2cc3nc(c(CC(=O)O)c4[nH]c(cc5nc(cc1[nH]2)C(C)=C5CC)c(C)c4C(=O)O)[C@@H](CCC(=O)OCCOCCOCCOC)[C@@H]3C,LC-MS,methanol-water 9:1,"4 h, pH 8.0",,compound loss,21%
[123I]c1ccc2nc(-c3ccc(-n4ccnn4)nc3)cn2c1,,"male Wistar rat, muscle","intravenous, 4 MBq, 6 h",,tracer uptake,0.024 %ID/g
COCC1CN(C2CCN(c3cc(OC)c(Nc4ncc(Br)c(Nc5ccc6c(c5P(C)(C)=O)OCCO6)n4)cc3C)CC2)C1,,EGFR-mutant NSCLC patients,"oral, 30 mg once daily",,grade ≥3 treatment-related AEs,0%
